Results collected from several papers.
Numbered parts are unrelated; each lists some results of a single study. Positions count from the first letter of the parent shown.

Series 1
Target: Interferon regulatory factor 5, full length, phosphomimetic (IRF5, Homo sapiens, UniProt Q13568-2, residues 1-514, S451D/S453D/S456D/S462D)
Method: protein-binding microarray
Form: double-stranded DNA, one strand shown
Medium: in vitro
Tested at: 940 nM top
Notes: 60-bp whole probe
With: salmon DNA 0.4 mg/ml
Relative to: random background probes
Reading: higher = stronger binding
Measurement: fitted relative affinity
GCCTAGCACGACGGTACCGGGTATCGGGACGTGCTAGTCTTGATTCGCTTGACGCTGCTG: 0.842 z-score
GCCTAGCACGACGGTCTCCTAATGCTGACGTGCTAGGTCTTGATTCGCTTGACGCTGCTG: -0.183 z-score
GCCTAGCACGACGGTCTCCGTCTCGGGACGTGCTAGGTCTTGATTCGCTTGACGCTGCTG: -0.104 z-score
GCCTAGCACTCATCTTTCTACATAGAACTGTGCTAGGTCTTGATTCGCTTGACGCTGCTG: 0.648 z-score

Series 2
Target: CCNE1, cyclin fold, Cln2 fusion (human)
Method: yeast growth competition, sequencing
Medium: yeast
Notes: strong parent motif
Relative to: not given
Reading: higher = stronger binding
Measurement: normalised enrichment score
Starting sequence: BRCA2 docking peptide (human); PSIKRNLLNEFDR; partner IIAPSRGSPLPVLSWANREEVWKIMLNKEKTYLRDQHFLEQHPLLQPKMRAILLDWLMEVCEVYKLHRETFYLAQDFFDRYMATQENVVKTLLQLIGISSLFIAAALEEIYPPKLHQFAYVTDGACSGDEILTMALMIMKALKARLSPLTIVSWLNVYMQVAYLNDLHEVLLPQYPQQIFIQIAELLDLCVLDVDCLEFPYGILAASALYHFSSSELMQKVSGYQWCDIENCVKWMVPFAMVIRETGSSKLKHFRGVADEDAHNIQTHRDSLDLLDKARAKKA
PSIKRNLLEEFDR [N9E]: 1.77
PMIKRNLLNEFDR [S2M]: 1.74
PSNKRNLLNEFDR [I3N]: -0.0987
PSIKRCLLNEFDR [N6C]: -0.333

Series 3
Target: Histone acetyltransferase KAT6A, both winged helices, GST fusion (KAT6A, Homo sapiens, UniProt Q92794, residues 1-181)
Method: protein binding microarray
Form: double-stranded DNA, one strand shown
Medium: in vitro
Tested at: not given
Notes: 8-mer, flanks averaged, mean of 2 arrays, mostly near background
Relative to: not given
Reading: higher = stronger binding
Measurement: E-score
Target sequence (chain): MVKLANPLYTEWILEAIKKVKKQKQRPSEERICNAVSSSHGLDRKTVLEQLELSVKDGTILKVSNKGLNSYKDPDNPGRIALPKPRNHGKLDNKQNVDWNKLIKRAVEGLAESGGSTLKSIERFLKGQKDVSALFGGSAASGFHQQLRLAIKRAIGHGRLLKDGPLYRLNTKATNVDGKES
AATCCCGA: 0.114
AAAGGCAG: -0.088
AAGTTAGA: -0.187
ATTCTCTG: 0.0154
ACGGGATC: 0.276
CTTCCAAC: -0.0801
GGGCGCAA: 0.211

Other studies, line by line
PhoQ, residues 284 288 289 292 302 303 AGGCYF
fold induction (PhoP, residues 12 14 15 18 19 VQGLL (Escherichia coli, UniProt P23836); Sort-seq, item: YFP reporter; E. coli; PhoQ-PhoP variant library, with: 10 µM Mg2+; relative to: high Mg2+ state, higher = stronger signaling): 3.35

For quick reference, copied from above (other studies, line by line):
PhoQ, residues 284 288 289 292 302 303 AGGCYF
fold induction (PhoP, residues 12 14 15 18 19 VQGLL (Escherichia coli, UniProt P23836); Sort-seq, item: YFP reporter; E. coli; PhoQ-PhoP variant library, with: 10 µM Mg2+; relative to: high Mg2+ state, higher = stronger signaling): 3.35
